Results pooled from the literature.
Lines come from different studies, so protocols differ.
Target: Ephrin type-B receptor 6 (EPHB6, Homo sapiens, UniProt O15197)

SMILES = CNC(=O)C1CCN(c2cc(C)c(F)cc2NC(=O)c2ccc(-c3cc(O)ccc3C)c(C)c2)CC1; assay = binding, competition with immobilised ligand; conditions = 1 µM; endpoint = remaining binding; result = 79%
SMILES = COc1cc(Nc2nccc(-c3cnn4nc(OC)ccc34)n2)cc(C(F)(F)F)c1; assay = binding, competition with immobilised ligand; conditions = 1 µM; endpoint = remaining binding; result = 73%
SMILES = Nc1ncc2c(n1)-c1c([nH]c3ccc(C4=CCOCC4)cc13)CCC2; assay = binding, competition with immobilised ligand; conditions = 1 µM; endpoint = remaining binding; result = 100%
SMILES = Cc1ccc(-c2c(/C=C(\C#N)C(=O)NC(C)C)n(CCCO)c3ncnc(N)c23)cc1; assay = cell-free assay, competition with immobilised ligand; conditions = 1 µM; endpoint = remaining binding; result = 100%
SMILES = Cc1cnc2nc1Nc1cccc(c1)COC/C=C/COCc1cc(ccc1OCCN1CCOCC1)N2; assay = binding; conditions = 0.1 µM; endpoint = remaining binding; result = 78%
SMILES = C=CC(=O)N1CCCC(n2c(=O)c3ncccc3n(Cc3ccc(Oc4ccccc4)cc3)c2=O)C1 (stereo not drawn); assay = cell-free assay, competition with immobilised ligand; conditions = 1 µM; endpoint = remaining binding; result = 78%
SMILES = CNC1C[S+]2CC[S+]3CC[S+](C1)[Ru-4]321([N]=C=S)[n]2c3ccc(OC)cc3c3c4c(c5cc(F)c[n+]1c5c32)C(=O)NC4=O (stereo not drawn); assay = KinomeScan; conditions = 0.1 µM; scale = baseline: untreated; endpoint = remaining binding; result = 93%
SMILES = C=CC(=O)N1CCc2ccc(-n3c(=O)ccc4cnc5ccc(-c6cnn(C)c6)cc5c43)cc21; assay = KINOMEscan; conditions = 1 µM; scale = baseline: DMSO control; endpoint = remaining binding; result = 92%
SMILES = CCN1CCN(Cc2ccc(C(=O)Nc3ccc(C)c(NCc4cnc5[nH]ccc5c4OC)c3)cc2C(F)(F)F)CC1; assay = binding, competition with immobilised ligand; conditions = 1 µM; endpoint = remaining binding; result = 12%
SMILES = COc1c(Cl)cccc1Nc1c(-c2ccncc2C#C[C@@]2(C)CCCN2C(=O)/C=C/CN(C)C)[nH]c2c1C(=O)NCC2; assay = cell-free assay, competition with immobilised ligand; conditions = 3 µM; endpoint = remaining binding; result = 50%
SMILES = CC(C)=CC1OC(C)(C)C2C=C3C(=O)C(Cl)=CC(O)C3C3C(O)C4OC4C(=O)C132 (stereo not drawn); assay = cell-free assay, competition with immobilised ligand; conditions = 10 µM; endpoint = remaining binding; result = 92%
SMILES = COc1cc(Nc2nc(C)cc(-c3cnn4nc(OC)ccc34)n2)cc(C(F)(F)F)c1; assay = inhibitor; conditions = 1 µM; scale = baseline: control; endpoint = remaining activity; result = 78%
